Measurements pooled from the literature.
Every numbered part comes from another study and shows a few of its results, in no order. Substitutions count along the parent as printed.

Sample 1
Target: CCNB2, cyclin fold, Cln2 fusion (human)
Technique: yeast growth competition, sequencing
Matrix: yeast
Notes: weak parent motif
Relative to: not given
Direction: higher = stronger binding
Starting sequence: CDKN1A docking peptide (human); SKACRRLFGPVDS; partner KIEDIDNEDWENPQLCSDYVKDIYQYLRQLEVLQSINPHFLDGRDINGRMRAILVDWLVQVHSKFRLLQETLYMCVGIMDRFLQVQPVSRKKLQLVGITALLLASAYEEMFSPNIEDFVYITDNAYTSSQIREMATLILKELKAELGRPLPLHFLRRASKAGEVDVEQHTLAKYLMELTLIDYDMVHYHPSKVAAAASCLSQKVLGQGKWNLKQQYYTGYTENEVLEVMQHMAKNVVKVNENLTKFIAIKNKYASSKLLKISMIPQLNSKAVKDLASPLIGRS
Variant	normalised enrichment score
SKACRRLFGPVHS [D12H]	0.534
SCACRRLFGPVDS [K2C]	-0.113
SKACRRLFGNVDS [P10N]	0.347
SKACRRLFKPVDS [G9K]	0.866
SKACRRLFGDVDS [P10D]	0.165
SKACRRLHGPVDS [F8H]	0.369
SKACRRLFGPEDS [V11E]	0.0527
SKACRREFGPVDS [L7E]	-0.032
SKAYRRLFGPVDS [C4Y]	-0.126
SKACARLFGPVDS [R5A]	-0.192
SIACRRLFGPVDS [K2I]	0.289
SKACRRDFGPVDS [L7D]	0.137
SKACMRLFGPVDS [R5M]	-0.119
SKACRRLFGPVKS [D12K]	0.46
SKACRRLFNPVDS [G9N]	0.135
SKALRRLFGPVDS [C4L]	0.219
SKACRRLYGPVDS [F8Y]	0.0347
SKACRRLCGPVDS [F8C]	0.415
SKACRRPFGPVDS [L7P]	0.383
SKACRRLFIPVDS [G9I]	0.55
SKACRRLFGPRDS [V11R]	0.806
SKASRRLFGPVDS [C4S]	0.141
SKACRRLFLPVDS [G9L]	0.528
SKACRRLFGPCDS [V11C]	0.448
SDACRRLFGPVDS [K2D]	0.419

Sample 2
Target: UBE2V1 UBC core domain (UniProt Q13404)
Chain of UniProt Q13404 (whole entry, looked up): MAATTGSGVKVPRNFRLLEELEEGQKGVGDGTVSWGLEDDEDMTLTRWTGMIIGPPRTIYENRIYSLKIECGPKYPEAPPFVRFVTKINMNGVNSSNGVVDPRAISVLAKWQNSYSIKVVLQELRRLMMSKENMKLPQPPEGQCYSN
Technique: yeast two-hybrid
Matrix: yeast
Notes: mostly zero background
Relative to: not given
Direction: higher = stronger interaction
B1: RNF7 RING domain (UniProt Q9UBF6); chain AICRVQVMDACLRCQAENKQEDCVVVWGECNHSFHNCCMSLWVKQNNRCPLCQQDWVVQRIGK
B2: RNF10 RING domain (UniProt Q8N5U6); chain VRICSHEVPSCPICLYPPTAAKITRCGHIFCWACILHYLSLSEKTWSKCPICYSSVHKKDLKS
B3: RMND5B RING domain (UniProt Q96G75); chain MKCWYHSVFACPILRQQTSDSNPPIKLICGHVISRDALNKLINGGKLKCPYCPMEQNPADGK
B4: TRIM74 RING domain (UniProt Q86UV6); chain SLLELEDWLQCPICLEVFKESLMLQCGHSYCKGCLVSLSYHLDTKVRCPMCWQVVDGSSSLP
Molecule	lacZ reporter activity
B1 (RNF7 RING domain)	0
GSEEEEIPFRCFICRQAFQNPVVTKCRHYFCESCALEHFRATPRCYICDQPTGGIFNPA (RNF113B RING domain (UniProt Q8IZP6))	0
B2 (RNF10 RING domain)	0
FLSKVEETFQCICCQELVFRPITTVCQHNVCKDCLDRSFRAQVFSCPACRYDLGRSYAMQ (UHRF1 RING domain (UniProt Q96T88))	0
B3 (RMND5B RING domain)	0
MEEMEEELKCPVCGSFYREPIILPCSHNLCQACARNILVQTPESESPQSHRAAGSGVSDY (TRIM9 RING domain (UniProt Q9C026))	0
B4 (TRIM74 RING domain)	0
EIKDYKARLTCPCCNMRKKDAVLTKCFHVFCFECVKTRYDTRQRKCPKCNAAFGANDFHR (RNF20 RING domain (UniProt Q5VTR2))	0

Sample 3
Target: RING finger protein unkempt homolog, zinc fingers 1-6, GST-SBP tag (UNK, Homo sapiens, UniProt Q9C0B0, residues 30-357)
Chain of UniProt Q9C0B0 (30-357, looked up): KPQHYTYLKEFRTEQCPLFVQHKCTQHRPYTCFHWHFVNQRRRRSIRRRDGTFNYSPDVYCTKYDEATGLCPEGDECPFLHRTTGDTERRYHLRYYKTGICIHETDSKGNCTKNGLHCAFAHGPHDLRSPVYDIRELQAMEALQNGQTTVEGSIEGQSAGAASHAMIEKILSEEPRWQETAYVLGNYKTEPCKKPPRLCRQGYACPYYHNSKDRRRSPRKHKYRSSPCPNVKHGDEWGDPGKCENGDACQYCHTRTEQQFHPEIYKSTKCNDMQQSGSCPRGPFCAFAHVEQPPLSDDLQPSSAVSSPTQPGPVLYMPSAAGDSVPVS
Technique: RNA Bind-n-Seq
Molecule type: RNA
Matrix: in vitro
Concentration: not given
Notes: RNA with constant flanks, ends assumed
Relative to: input RNA pool
Direction: higher = stronger binding
All sequences stand within: GGGAGUUCUACAGUCCGACGAUC … CAACAGAGGAUUGAGCAUCA
Sequence	bound/input enrichment [ratio]
UGGACUCACGUUGGACCUACUCCUGCGAUAACUAUUAAGGAAACAGUUGCCAACCACUUGCCGUUACAAAACCAAACCUGGGACAUACUUACUUCGCAGGUAUAAAGCCUCAGUUUUAAC	0.27
UUUGCAAGAAAAAAGACCCGUGUCCUGUCCUUUGUUUGUAACAGUUGCAACACUUGAUAUUUCCGAGGGGUCUUUUACUCUCUUCAAACGUCCUUGAUGUGGUCUGUAAAUUCUGUUUCA	0.169
CACUUGAUGCCCCCACGAAUCCUAGUGGAAUGUUUACUCCCCAAUGGAAUGAUAGUGACUUCCGAAUGCCUCCGUGAGGCCACACUCGUCACCAUCAAACAUGAACUGUUCAGAGAGGCC	0.169
UUCUGGGGAUAUAAUUCAGGUUGAUGAAAAAACUGUAGGAGAGCCUGGUUGGCUUUAUGGCCGUUUUCAGGGAAAGUUUGGCUGGUUCCCGUGCAACUAUGUAGAAAAAGUGCUGUCAAG	0.447
UUUUAUGCUCCGACAAGUGCUGUGGAGAACAUACUGGAACACUUGGCGCGAGACAUUGACGUGGUCCGACCAAAUAUUGUGAAACACCCUCUGACCCAGGAAGUAAAAGAGUGUGACGGC	0.27
GAAUAUAUAGGUGAAGAAGAAGCUACAUUAGUUGAUUUUGUUUGUUCUAAGGUUAUGGCUCACCGUUCACCCCAGAGCAUUUUAGAUGAUGUUGCCAUGGUACUUGAUGAAGAAGCAGAA	2.7
CAUGAUCUUGUUACUGUGAUAUUUUAAAUAUCCACAGUACUCACUUUUUCCAAAUGAUCCCCGUAAUUGCCUAGAAAUAUCUUUCUCUUACCUGUUAUUUAUCAAUUUUUCCCAGUAUUU	3.68
UCUCCAGAGCAUAAAGAACUAUCUCAUUCUCCCCCAAGGGAGAAUAGCUUUGAGUCAUCUUCCGAGUUUAAAAACUCAGGCCCUGUUUCAGAAGUAAAUACUGGCUUUUCUCCUGAGGUU	0.119

Sample 4
Target: Fragile X messenger ribonucleoprotein 1, C-terminal low-complexity region (Fmr1, Mus musculus, UniProt P35922)
Technique: RNA Bind-n-Seq
Molecule type: RNA
Matrix: in vitro
Concentration: 200 nM
Notes: whole 134-nt RNA, ends assumed
Added: 150 mM KCl
Relative to: input library
Direction: higher = stronger binding
All sequences stand within: GGGAGUUCUACAGUCCGACGAUC … UGGAAUUCUCGGGUGUCAAGG
Sequence	log2 enrichment
CUCAAGUCCUGUGCUACACAUCGUAUGUACCGAAUCGGUUUGGUUUUUGGAGGAAAGUAUUAUGUUACGCCGUUCGGAUCUGCACUUCCA	-0.0067
AAGUCCUGUGCUACACAUCGUAUGUACCGAAUCGGGGAGGGGUUUUUGGGGAGGGGAAAGUAUUAUGUUACGCCGUUCGGAUCUGCACUU	1.31
AAGUCCUGUGCUACACAUCGUAUGUACCGAAUCGGGGAGGGGUGGGGUUUUUGGGGAAAGUAUUAUGUUACGCCGUUCGGAUCUGCACUU	0.867
GCAGGAAGUAAAAACAAAUGGAAAUGCUUCGGAUAGUGGCAGGGGUGGGGGUUGCUAAGGAAAGGGUGGGAUGGGAGUGGGUAAAGAGUG	0.154
GCAGGAAGUAAAAACAAAUGGAAAUGCUUCGGAAAAUGGCAGGGGUGGGGGUUGCUAAGGAAAGGGUGGGAUGGGAGUGGGUAAAGAGUU	0.437
UGGGAGGUGGAUUUUGUUUAUUUUUUUAGCUCCUUUCCAGGGGUGGGAAUUUUUUUUUAAUAUGUGUCAUGAAUAAAGUUGUUUUUGAAA	-0.0669
GUCCUGUGCUACACAUCGUAUGUACCGAAUCGGGGAAAAGGGGAAAAGGGAAAAGGGGAAAGUAUUAUGUUACGCCGUUCGGAUCUGCAC	0.293
CAAGUCCUGUGCUACACAUCGUAUGUACCGAAUCGGGGUGGGGAAAGGGGAGGGGAAAGUAUUAUGUUACGCCGUUCGGAUCUGCACUUC	1.03
UAACCUUAGAGGAGGAUCUGAUGGAUAUGGCAGUGGACGUGGAUUUGGGGAUGGCUAUAAUGGGUAUGGAGGAGGACCUGGAGGUGGCAA	0.528

For quick reference, copied from above (sample 1):
Variant	normalised enrichment score
SKACRRLFNPVDS [G9N]	0.135
SKALRRLFGPVDS [C4L]	0.219
SKACRRLYGPVDS [F8Y]	0.0347
